Assay results collected from several papers.
Parts stem from different laboratories: compare values within a part only.

Set 1 — method: RNA Bind-n-Seq; molecule type: RNA; sample: in vitro; tested at: 365 nM; relative to: no-protein control; reading: higher = stronger binding
Target: RNA binding protein fox-1 homolog 2, RRM domain, GST-SBP tag (RBFOX2, Homo sapiens, UniProt O43251-10, residues 100-194)
Setting: natural RNA segment, single round, ends assumed
Constant ends, left off below: GGGAGUUCUACAGUCCGACGAUC … UGGAAUUCUCGGGUGCCAA
Target sequence (chain): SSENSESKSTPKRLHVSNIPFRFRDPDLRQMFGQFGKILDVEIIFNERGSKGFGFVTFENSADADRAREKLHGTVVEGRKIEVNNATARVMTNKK
Sequence	RBNS enrichment (R)
UAAUAGAAGCUCAACUAUUUUUUUGUGGAUUUCAGUUUUUAUCAUCAGAAGUCCUAGACAGUGACAUUUCUUAAUGGUGGGAGUCCAGCUCAUGCAUUUCUGAUUAUACA	0.495
CAACUGGACGGGCUACUCACAAAAGGUGUUACCCACUUCGUUAUAUAUACUUUCUGUUAUUCCAAAAUGUCAUCAUUAGGGAAGCCACUAAGAGUUUGGAAAUAGGGGCU	0.29
UGUGAAGUAUUUUUUUAAAACAAAACAAAAAUUAUGGUCAUUAAAAAACUAGAGAAUUAGCCAUAUUAAGGAUUUUUCUUGACUGCAAAUUACUUCUAAAGAAUCAUCAG	0.496
AACUUGUGUUCCAGCUGAGGAGUGUCCCAGGUGUUAACGAGACUGAGGCCUAUUGCUGGAGUUCAGAUACUGCAGCUCCUCUUGUUUUUCUGCACUGUGUUUGCCAGCCC	3.91
GCCUGGAAAGUCCACUUGGACUUGACAAUGAGGAGCUCUCUGCUGUCACCUGCUGUGAUUCCUAGAGUCAGAAUCAGACUGCAGUGGCCACAGGCACAAGUGGGAAGUGA	0.447
CCACCUUUCACCCCACAGUGGUUUUCAAUUAGUAUUUAUUCCAUGGUGGAGUCUGUGAGGCUAGAAUAUCUCUCAGCAAGAGCAGCAUACCUCCAUGUUGUGAAGGCAUC	0.494
UAACCUCACCUUCCCUGGCUCAUCUUGGCCUUGGGGAGUUGCCUUUAGGCUUGAGUCCUCAAGCCUCUCCUUUUCGUCCAUAAUAAAAUGUUUAAGUUAUUAAGAUCCUU	0.226
CUUGGUCUCUACGAUCUCCGUGCAAAAACCAUUAUCAAGUUCUCAGAUGAAUAUCUGACAAAGCAGUGGAGGUAUCCGAUUGAGCUUCAUGGCAUUGGUAAAUAUGGCAA	0.311

Set 2 — method: protein binding microarray; molecule type: double-stranded DNA, one strand shown; sample: in vitro; tested at: not given; relative to: not given; reading: higher = stronger binding
Target: Histone acetyltransferase KAT6A, winged helix 1, GST fusion (KAT6A, Homo sapiens, UniProt Q92794, residues 1-85)
Setting: 8-mer, flanks averaged, mean of 2 arrays, mostly near background
Residues (chain): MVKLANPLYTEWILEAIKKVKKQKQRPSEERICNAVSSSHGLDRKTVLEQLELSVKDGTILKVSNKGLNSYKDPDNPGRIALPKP
Sequence	E-score
ATAGGCGA	-0.00612
ACGGCGAC	0.388
ACCGATTA	0.0241
GATGGGAC	-0.084
CAATTGAC	-0.0598
GCGAGGTA	0.17
TCGTGAAA	-0.0652
GAATAATC	-0.272

Single results of other studies
SMILES	tested on	test	system	setting	how to read	endpoint	result
C[CH2][Hg][S]c1ccccc1C(=O)[O-].[Na+]	Replicase polyprotein 1ab, nsp13 helicase (rep, Severe acute respiratory syndrome coronavirus 2, UniProt P0DTD1)	helicase ATPase activity	SARS-CoV-2	20 µM		inhibition	105%
NCc1ccc(S(N)(=O)=O)cc1	HEK-293T	pseudovirus infection, FDA-approved drug library screen	VSV pseudotyped with SARS-CoV-2 spike	10 µM, 16 h	relative to: vehicle-treated	GFP-positive cells	84.6%

For quick reference, copied from above (set 1):
Sequence	RBNS enrichment (R)
AACUUGUGUUCCAGCUGAGGAGUGUCCCAGGUGUUAACGAGACUGAGGCCUAUUGCUGGAGUUCAGAUACUGCAGCUCCUCUUGUUUUUCUGCACUGUGUUUGCCAGCCC	3.91
CUUGGUCUCUACGAUCUCCGUGCAAAAACCAUUAUCAAGUUCUCAGAUGAAUAUCUGACAAAGCAGUGGAGGUAUCCGAUUGAGCUUCAUGGCAUUGGUAAAUAUGGCAA	0.311
GCCUGGAAAGUCCACUUGGACUUGACAAUGAGGAGCUCUCUGCUGUCACCUGCUGUGAUUCCUAGAGUCAGAAUCAGACUGCAGUGGCCACAGGCACAAGUGGGAAGUGA	0.447
